Measured values collected from several papers.
Values joined by “and” are separate records of one study, mostly repeats; a detail may differ. ± gives the spread as reported. Values after ≈ are worked out from the molar mass of the structure shown.
SCRIB PDZ3 domain: Protein scribble homolog, PDZ3 domain (SCRIB, Homo sapiens, UniProt Q14160)
Sequence of UniProt Q14160 (whole entry, looked up): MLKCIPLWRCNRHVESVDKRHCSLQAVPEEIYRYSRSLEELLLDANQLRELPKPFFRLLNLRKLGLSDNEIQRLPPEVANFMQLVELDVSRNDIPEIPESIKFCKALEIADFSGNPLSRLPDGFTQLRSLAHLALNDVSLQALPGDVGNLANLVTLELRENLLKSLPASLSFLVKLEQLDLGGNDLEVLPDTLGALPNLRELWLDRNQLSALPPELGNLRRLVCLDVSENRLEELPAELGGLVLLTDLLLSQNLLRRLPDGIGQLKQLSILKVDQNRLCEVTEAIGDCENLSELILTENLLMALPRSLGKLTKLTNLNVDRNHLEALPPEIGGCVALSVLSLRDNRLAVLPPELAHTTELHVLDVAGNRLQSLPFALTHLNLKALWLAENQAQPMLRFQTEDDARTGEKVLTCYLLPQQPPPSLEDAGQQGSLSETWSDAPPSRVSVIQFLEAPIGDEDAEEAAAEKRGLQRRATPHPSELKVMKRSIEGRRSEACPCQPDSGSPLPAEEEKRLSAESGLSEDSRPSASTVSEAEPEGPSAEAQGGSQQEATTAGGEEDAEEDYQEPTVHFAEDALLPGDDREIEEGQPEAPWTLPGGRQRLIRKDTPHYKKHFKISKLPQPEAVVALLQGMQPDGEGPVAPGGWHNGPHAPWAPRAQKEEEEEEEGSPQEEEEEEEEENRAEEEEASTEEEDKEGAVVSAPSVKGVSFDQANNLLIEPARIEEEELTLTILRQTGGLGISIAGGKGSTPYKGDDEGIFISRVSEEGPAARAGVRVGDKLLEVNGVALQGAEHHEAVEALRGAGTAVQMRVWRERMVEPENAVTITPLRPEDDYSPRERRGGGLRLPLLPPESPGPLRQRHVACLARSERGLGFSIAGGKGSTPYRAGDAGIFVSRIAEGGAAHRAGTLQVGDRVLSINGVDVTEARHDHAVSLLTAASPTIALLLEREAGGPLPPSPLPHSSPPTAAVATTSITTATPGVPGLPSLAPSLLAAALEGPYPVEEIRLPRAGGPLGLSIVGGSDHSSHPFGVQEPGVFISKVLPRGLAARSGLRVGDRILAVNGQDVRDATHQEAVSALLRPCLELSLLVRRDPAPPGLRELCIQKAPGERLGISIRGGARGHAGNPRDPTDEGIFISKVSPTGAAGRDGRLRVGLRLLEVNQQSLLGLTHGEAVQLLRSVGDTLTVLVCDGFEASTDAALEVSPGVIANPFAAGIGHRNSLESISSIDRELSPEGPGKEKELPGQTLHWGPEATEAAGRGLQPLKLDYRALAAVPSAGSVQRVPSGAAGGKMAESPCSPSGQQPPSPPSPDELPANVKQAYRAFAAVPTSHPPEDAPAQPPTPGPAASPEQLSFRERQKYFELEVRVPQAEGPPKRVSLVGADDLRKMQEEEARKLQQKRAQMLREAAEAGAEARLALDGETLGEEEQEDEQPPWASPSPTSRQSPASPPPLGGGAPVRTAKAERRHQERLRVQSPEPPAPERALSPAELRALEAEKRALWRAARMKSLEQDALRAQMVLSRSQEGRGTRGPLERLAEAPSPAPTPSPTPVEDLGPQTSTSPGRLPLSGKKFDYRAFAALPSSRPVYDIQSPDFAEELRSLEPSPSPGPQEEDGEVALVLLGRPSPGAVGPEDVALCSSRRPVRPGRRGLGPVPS
Sequence of UniProt P21397 (whole entry, looked up): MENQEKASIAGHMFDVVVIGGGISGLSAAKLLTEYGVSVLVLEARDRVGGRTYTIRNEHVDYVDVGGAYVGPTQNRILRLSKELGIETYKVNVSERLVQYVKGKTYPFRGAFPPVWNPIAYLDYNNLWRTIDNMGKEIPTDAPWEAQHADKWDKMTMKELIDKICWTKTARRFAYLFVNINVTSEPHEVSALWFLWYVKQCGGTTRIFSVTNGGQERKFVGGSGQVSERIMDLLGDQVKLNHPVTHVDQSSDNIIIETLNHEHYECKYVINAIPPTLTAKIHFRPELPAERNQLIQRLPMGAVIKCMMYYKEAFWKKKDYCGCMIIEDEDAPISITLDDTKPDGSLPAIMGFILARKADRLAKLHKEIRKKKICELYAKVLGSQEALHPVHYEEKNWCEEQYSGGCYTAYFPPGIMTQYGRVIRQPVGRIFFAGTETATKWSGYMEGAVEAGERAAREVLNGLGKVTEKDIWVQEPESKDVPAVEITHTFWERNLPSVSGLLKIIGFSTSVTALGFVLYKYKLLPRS
Sequence of UniProt O14757 (whole entry, looked up): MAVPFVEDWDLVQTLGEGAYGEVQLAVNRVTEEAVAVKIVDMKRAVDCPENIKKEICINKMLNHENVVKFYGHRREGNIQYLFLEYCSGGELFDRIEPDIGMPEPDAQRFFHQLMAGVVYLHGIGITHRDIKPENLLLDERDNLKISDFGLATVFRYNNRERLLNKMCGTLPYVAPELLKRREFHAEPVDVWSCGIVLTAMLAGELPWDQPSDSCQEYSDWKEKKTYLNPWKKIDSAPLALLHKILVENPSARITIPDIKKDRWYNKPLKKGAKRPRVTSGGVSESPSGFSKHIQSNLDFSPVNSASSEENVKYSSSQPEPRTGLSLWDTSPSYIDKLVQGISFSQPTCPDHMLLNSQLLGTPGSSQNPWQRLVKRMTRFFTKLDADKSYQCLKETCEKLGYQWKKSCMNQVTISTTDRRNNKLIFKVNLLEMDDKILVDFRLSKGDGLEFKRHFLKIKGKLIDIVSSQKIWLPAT
Sequence of UniProt O33336 (whole entry, looked up): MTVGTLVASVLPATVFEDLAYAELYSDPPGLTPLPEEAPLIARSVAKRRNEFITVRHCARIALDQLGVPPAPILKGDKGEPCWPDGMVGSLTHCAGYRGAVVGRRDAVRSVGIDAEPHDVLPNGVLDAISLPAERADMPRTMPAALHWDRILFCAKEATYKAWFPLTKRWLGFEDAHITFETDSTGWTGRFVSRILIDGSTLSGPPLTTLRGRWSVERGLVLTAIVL

| SMILES | target or system | test | test system | conditions | scale | quantity | value |
| --- | --- | --- | --- | --- | --- | --- | --- |
| CCC(CC)O[C@@H]1C=C(C(=O)O)C[C@H](N)[C@H]1NC(C)=O | influenza A virus A/PR/8/34 (H1N1) |  |  | concentration not given, co-treatment |  | HA titre reduction | 8 log units |
| Nc1ncnc2c1ncn2[C@@H]1O[C@@H]2COP(=O)(O)O[C@H]3[C@@H](O)[C@H](n4cnc5c(=O)[nH]cnc54)O[C@@H]3COP(=O)(O)O[C@H]2[C@H]1O | West Nile virus | RNA sequencing, item: DDX58/IFIH1 interferon-alpha/beta induction R-HSA-168928 | HFF-1 cells | concentration not given, upregulated pathway | relative to: WNV-infected untreated cells | fold enrichment | 4.17 |
| CCCCCCCCCCCCCCCCCC[N+](C)(C)CCCCCCCCCC[N+](C)(C)CCCCCCCCCCCCCCCCCC.[Br-].[Br-] | influenza A virus A/PR/8/34 (H1N1) |  |  | concentration not given, co-treatment |  | protection | 83.3 ± 5.9% |
| COc1cc2c(Oc3ccc4[nH]c(C)cc4c3F)ccnc2cc1OCC1(N)CC1 |  |  | paediatric recurrent refractory sarcoma | 10 mg |  | grade 1 or 2 AST elevation | 0% |
| O=C1c2c(O)c(=O)ccn2N([C@@H]2c3ccccc3SCc3c2ccc(F)c3F)[C@@H]2COCCN12 | influenza A virus H1N1 |  | A/WSN/33, BALB/c mice, lung | subcutaneous, 0.25 mg/kg every 6 h, 24 h |  | lung virus titre | 3 log10 TCID50/mL and 3.23 log10 TCID50/mL and 3.5 log10 TCID50/mL |
| CCCNCCc1c[nH]c2cccc(O)c12.CCCNCCc1c[nH]c2cccc(O)c12.O=C(O)/C=C/C(=O)O |  |  | C57BL/6J mice | subcutaneous, 10 mg/kg |  | head twitch count | 52.2 ± 3.3 |
| CC[C@H](C)[C@H](NC(=O)[C@H](CCC(N)=O)NC(=O)[C@@H](NC(=O)[C@@H](NC(=O)[C@H](Cc1c[nH]cn1)NC(=O)[C@H](CCC(N)=O)NC(=O)CNC(=O)[C@@H]1CCCN1C(=O)[C@H](C)NC(=O)[C@@H]1CCCN1)[C@@H](C)O)[C@@H](C)O)C(=O)O | SCRIB PDZ3 domain | binding, fluorescence polarization | solution | Scribble PDZ3 domain |  | Kd | 52.2 µM |
| C[C@H](N)[C@H](O)c1ccc(O)c(O)c1 | human iPSC-derived cardiomyocytes | MyBP-C/MYH ratio, plate-normalised SD score |  | concentration not given, primary screen | direction not given | activity score | -5 |
| CCCCCCCCCCCCCCCCCC[N+](C)(C)CCCCCCCCCCCC[N+](C)(C)CCCCCCCCCCCCCCCCCC.[Br-].[Br-] | influenza A virus A/PR/8/34 (H1N1) |  |  | concentration not given, pre-treatment |  | HA titre reduction | 1 log units |
| Clc1ccc(N/N=C(\c2ccccc2)c2ccccn2)nc1 |  |  | NOD/SCID mice, HER2+ LC tumour-derived cells | dose not given |  | median survival | 47 to 51 days |
| COc1c(CCC[P+](c2ccccc2)(c2ccccc2)c2ccccc2)cc2c(c1OC)OCO2.[I-] | U-251 | SRB |  |  |  | TGI | -4.71 log M |
| CCNCCc1c[nH]c2cccc(O)c12.CCNCCc1c[nH]c2cccc(O)c12.O=C(O)CCC(=O)O |  |  | C57BL/6J mice | subcutaneous, 0.1 mg/kg, 30 min session |  | distance travelled | 2510 ± 214 cm |
| C[C@H]1CN(c2n[nH]c3nc(N[C@H]4CC[C@H](NS(=O)(=O)CCC(F)(F)F)CC4)ncc23)CCO1 | CHEK1 (Homo sapiens, UniProt O14757) | inhibitor, Kinobeads competition profiling |  | 0.8 µM | relative to: vehicle | relative abundance | 1.04 |
| CC[C@H](C)[C@@H]1NC(=O)[C@@H]2CCCN2C(=O)[C@H](CC(C)C)NC(=O)[C@H](CC(C)C)NC(=O)CNC(=O)[C@@H](NC(=O)[C@@H](NC(=O)[C@H](CC(=O)O)NC(=O)CNC(=O)[C@@H](NC(=O)[C@H](C)NC(=O)CNC(=O)[C@H](CCCCN)NC(=O)[C@H](CC(C)C)NC(=O)[C@H](CC(C)C)NC(=O)[C@H](CCCCN)NC(=O)CNC(=O)[C@@H](NC(=O)[C@@H](N)CC(C)C)C(C)C)C(C)C)C(C)C)CSSC[C@@H](C(=O)O)NC1=O |  | RNA-seq, item: Sik1 | mouse, traumatic brain injury model, frontal cortex and hippocampus | dose not given | relative to: TBI alone | log2 fold change | -1.52 |
| CC(C)NCCc1c[nH]c2cccc(O)c12.O=C(O)/C=C/C(=O)O |  |  | C57BL/6J mice | subcutaneous, 0.1 mg/kg, 30 min |  | distance travelled | 1980 ± 251 cm |
| CC[C@H](C)[C@H](NC(=O)[C@H](C)NC(=O)[C@H](CCCCN)NC(=O)[C@H](CC(C)C)NC(=O)[C@H](C)NC(=O)[C@@H](NC(=O)[C@H](Cc1c[nH]cn1)NC(=O)[C@H](CC(C)C)NC(=O)[C@@H](NC(=O)[C@@H](NC(=O)[C@H](CCCCN)NC(=O)[C@H](C)NC(=O)[C@H](C)NC(=O)[C@H](CO)NC(=O)[C@H](CCCCN)NC(=O)[C@H](Cc1ccccc1)NC(=O)[C@@H](NC(=O)[C@H](CCCCN)NC(=O)[C@H](CC(C)C)NC(=O)[C@H](Cc1ccccc1)NC(=O)[C@H](CO)NC(=O)[C@H](CCCCN)NC(=O)[C@H](Cc1c[nH]c2ccccc12)NC(=O)[C@H](CCCCN)NC(C)=O)[C@@H](C)O)[C@@H](C)O)C(C)C)[C@@H](C)O)C(=O)N[C@@H](CO)C(=O)N[C@@H](CO)C(N)=O | Streptococcus pyogenes |  | erythromycin-sensitive | 21 strains |  | MBC90 | 64 µg/mL (≈ 21.8 µM) |

| SMILES | target or system | test | test system | conditions | scale | quantity | value |
| --- | --- | --- | --- | --- | --- | --- | --- |
| CCCCNCCc1c[nH]c2cccc(O)c12.O=C(O)/C=C/C(=O)O |  |  | C57BL/6J mice | subcutaneous, 30 mg/kg |  | head twitch count | 5 ± 1.1 |
| C[C@H]1O[C@@H](O[C@H]2CC[C@@]3(C)[C@@H](CC[C@]4(C)[C@@H]3C=C[C@]35OC[C@@]6(CCC(C)(C)C[C@H]63)[C@@H](O)C[C@]54C)[C@]2(C)CO)[C@H](O)[C@@H](O[C@@H]2O[C@H](CO)[C@@H](O)[C@H](O)[C@H]2O)[C@H]1O |  |  | mouse, chronic-plus-binge ethanol, hepatic SIRT1 knockdown, liver | dose not given, high dose |  | hepatic total cholesterol | 0.25 mmol/g protein and 0.168 mmol/g protein and 0.204 mmol/g protein and 0.107 mmol/g protein and 0.246 mmol/g protein and 0.238 mmol/g protein |
| CC(C)N1CCC(NC2CCN(c3cccc(-c4cc5cc(F)ccc5[nH]4)c3)CC2)CC1 | HCT-15 |  |  |  |  | GI50 | 0.749 µM |
| CCOP(=S)(OCC)Oc1cnc2ccccc2n1 | nanobody A4 | ic-ELISA |  | concentration not given | relative to: coumaphos IC50 over compound IC50, mass basis | cross-reactivity | 27% |
| Cc1ccccc1NC(=O)Nc1ccc(CC(=O)N[C@@H](CCCCNC(=O)/C=C/c2cccnc2)C(=O)N[C@@H](CCCC(=O)O)C(=O)NC2(C(=O)NCCOCCOCCOCCOCC(=O)N[C@@H](CCCCNC(=S)Nc3ccc(CCCN(CCN4CCN(CP(=O)(O)O)CCN(CP(=O)(O)O)CC4)CC(=O)O)cc3)C(N)=O)CCCCC2)cc1 [gallium-68 labelled] |  |  | mouse, liver | intravenous, 2 h post-injection |  | tissue uptake | 6.2 ± 1.2 %ID/g |
| CS(=O)(=O)CCCn1c(Cn2c(=O)n(CC(F)(F)F)c3ccncc32)cc2cc(Cl)ccc21 | respiratory syncytial virus | RT-qPCR | hospitalized infants 1-24 months, nasal swab | oral, 1-9 mg/kg daily, day 4, all doses combined | relative to: placebo | LS mean difference vs placebo | -1.4 log10 copies/mL |
| CSCC[C@H](NC(=O)[C@@H](N)C(C)C)C(=O)N[C@@H](CCCNC(=N)N)C(=O)N[C@@H](CC(C)C)C(=O)N[C@@H](CCC(N)=O)C(=O)N[C@@H](CO)C(=O)N[C@@H](CCC(=O)O)C(=O)N[C@H](C(=O)N[C@@H](CO)C(=O)N[C@H](C(=O)O)C(C)C)[C@@H](C)O | SCRIB PDZ3 domain | binding, fluorescence polarization | solution | Scribble PDZ3 domain |  | Kd | 8.8 µM |
| C[C@]12CC[C@H]3[C@@H](CC=C4CC(O)CC[C@@]43CO)[C@@H]1CCC2O (stereo partly shown) |  | TUNEL | rat, GAN diet-induced MASH, liver | dose not given | relative to: vehicle | hepatocyte cell death | decreased |
| O=C(O)/C=C/C(=O)O.Oc1cccc2[nH]cc(CCNC3CCCCC3)c12 |  |  | C57BL/6J mice | subcutaneous, 1 mg/kg |  | head twitch count | 7.7 ± 1.3 |
| CN1CCN(S(=O)(=O)c2cc([N+](=O)[O-])ccc2N(CCOS(C)(=O)=O)CCOS(C)(=O)=O)CC1 |  |  | NSG mice, T-ALL PDX sample E | intraperitoneal, 25 mg/kg, single mouse trial |  | event-free survival | > 272 days |
| CCCCCCCCCCCCCCCC[N+](C)(C)CCCCCC[N+](C)(C)CCCCCCCCCCCCCCCC.[Br-].[Br-] | influenza A virus A/PR/8/34 (H1N1) |  |  | concentration not given, pre-treatment |  | protection | 77.6 ± 8.1% |
| O=C(Nc1cnccc1Cl)N1CCN(Cc2ccc3c(c2)OC(F)(F)O3)CC1 | MAOA (Homo sapiens, UniProt P21397) | enzyme activity, inhibitor |  | 50 µM, human, added: kynuramine substrate |  | inhibition | 16% |
| COc1cc(CCC[P+](c2ccccc2)(c2ccccc2)c2ccccc2)c(OC)c2c1OCO2.[I-] | NCI-H522 | SRB |  |  |  | TGI | -4.92 log M |
| C=CCNCCc1c[nH]c2cccc(O)c12.C=CCNCCc1c[nH]c2cccc(O)c12.O=C(O)/C=C/C(=O)O |  |  | C57BL/6J mice | subcutaneous, 3 mg/kg |  | head twitch count | 74.3 ± 3.8 |
| CCc1cccc(CC)c1NC(=O)NC(=N)NCCCSC | 4'-phosphopantetheinyl transferase PptT (Mycobacterium tuberculosis, UniProt O33336) | inhibitor |  |  |  | IC50 | > 100 µM |

Repeated from above:
| SMILES | target or system | test | test system | conditions | scale | quantity | value |
| --- | --- | --- | --- | --- | --- | --- | --- |
| O=C1c2c(O)c(=O)ccn2N([C@@H]2c3ccccc3SCc3c2ccc(F)c3F)[C@@H]2COCCN12 | influenza A virus H1N1 |  | A/WSN/33, BALB/c mice, lung | subcutaneous, 0.25 mg/kg every 6 h, 24 h |  | lung virus titre | 3 log10 TCID50/mL and 3.23 log10 TCID50/mL and 3.5 log10 TCID50/mL |
| COc1c(CCC[P+](c2ccccc2)(c2ccccc2)c2ccccc2)cc2c(c1OC)OCO2.[I-] | U-251 | SRB |  |  |  | TGI | -4.71 log M |
| C[C@]12CC[C@H]3[C@@H](CC=C4CC(O)CC[C@@]43CO)[C@@H]1CCC2O (stereo partly shown) |  | TUNEL | rat, GAN diet-induced MASH, liver | dose not given | relative to: vehicle | hepatocyte cell death | decreased |
| O=C(Nc1cnccc1Cl)N1CCN(Cc2ccc3c(c2)OC(F)(F)O3)CC1 | MAOA (Homo sapiens, UniProt P21397) | enzyme activity, inhibitor |  | 50 µM, human, added: kynuramine substrate |  | inhibition | 16% |
